Measured values from different studies.
Protocols differ between the studies behind these lines. Several values in a cell are separate wells, animals, samples, runs or records.

C/C(N)=N/C(=N\S(=O)(=O)c1ccc(C(F)(F)F)cc1)N1C[C@H](c2ccccc2)C(c2ccc(Cl)cc2)=N1  Cmax (C57BL/6 mouse, male, plasma; oral, 10 mg/kg): 1300 ng/mL
Cc1ccc(OCC(=O)N(Cc2cccs2)c2ccn[nH]2)cc1  Cmax (male CD-1 mouse, plasma; oral, 30 mg/kg): 382 nM
O=S(=O)(NCc1ccncc1)c1ccc(C2CCCCC2)cc1  Cmax (C57BL/6J mouse, male, plasma; intraperitoneal, 0.3 mg/kg): 16 nM
O=S(=O)(N[C@H]1CCC[C@@H](N2c3ccccc3CCc3ccccc32)[C@@H]1O)c1ccc(OC(F)(F)F)cc1  Cmax (mouse, plasma; oral, 100 mg/kg, suspension): 1200 ng/mL
CC(C)[C@@H](C)Nc1nc(-c2cccs2)nc(Cl)c1-c1c(F)cc(F)cc1F  Cmax (mouse, plasma; intraperitoneal, 2.5 mg/kg, cassette dosing): 399 ng/mL
Cc1nn(-c2nc3c(F)cc(F)cc3s2)c(O)c1C(c1ccc(C(F)(F)F)cc1)c1c(C)nn(-c2nc3c(F)cc(F)cc3s2)c1O  Cmax (ICR mouse, plasma; oral, 50 mg/kg): 70900 ng/mL and 106000 ng/mL and 94900 ng/mL
O=C(c1ccccc1)N1C(c2ccc(OCC3CCN(CCCF)C3)cc2)c2ccc(O)cc2CC12CC2 (centres unmarked)  Cmax (C57BL/6J mouse, plasma; oral, 25 mg/kg): 811 ng/mL and 771 ng/mL
CN[C@H](CC(C)C)C(=O)N[C@H]1C(=O)N[C@@H](CC(N)=O)C(=O)N[C@H]2C(=N)N[C@H]3C(=O)N[C@H](C(=O)N[C@H](C(=O)NCCC[N+](C)(C)C)c4cc(O)cc(O)c4-c4cc3ccc4O)[C@H](O)c3ccc(c(Cl)c3)Oc3cc2cc(c3O[C@@H]2O[C@H](CO)[C@@H](O)[C@H](O)[C@H]2O[C@H]2C[C@](C)(NCc3ccc(-c4ccc(Cl)cc4)cc3)[C@H](O)[C@H](C)O2)Oc2ccc(cc2Cl)[C@H]1O  Cmax (mouse; intravenous, 10 mg/kg): 85900 ng/mL
O=c1c(-c2cnn(-c3ccccc3)c2)c(C(F)(F)F)oc2c(O)c(O)ccc12  Cmax (mouse; intraperitoneal, 100 mg/kg, DMSO vehicle): 36900 nM
Cc1[nH]nc2c1N=C(c1ccccc1Cl)c1cnc(N3CCOCC3)cc1N2  Cmax (nude mouse, HCC1806 xenograft, plasma; oral, 15 mg/kg once daily): 443 ng/mL
CN[C@H](CC(C)C)C(=O)N[C@H]1C(=O)N[C@@H](CC(N)=O)C(=O)N[C@H]2CN[C@H]3C(=O)N[C@H](C(=O)N[C@H](C(=O)NCCCNC(=N)N)c4cc(O)cc(O)c4-c4cc3ccc4O)[C@H](O)c3ccc(c(Cl)c3)Oc3cc2cc(c3O[C@@H]2O[C@H](CO)[C@@H](O)[C@H](O)[C@H]2O[C@H]2C[C@](C)(NCc3ccc(-c4ccc(Cl)cc4)cc3)[C@H](O)[C@H](C)O2)Oc2ccc(cc2Cl)[C@H]1O  Cmax (mouse; intravenous, 10 mg/kg): 78900 ng/mL

For quick reference, copied from above:
CN[C@H](CC(C)C)C(=O)N[C@H]1C(=O)N[C@@H](CC(N)=O)C(=O)N[C@H]2CN[C@H]3C(=O)N[C@H](C(=O)N[C@H](C(=O)NCCCNC(=N)N)c4cc(O)cc(O)c4-c4cc3ccc4O)[C@H](O)c3ccc(c(Cl)c3)Oc3cc2cc(c3O[C@@H]2O[C@H](CO)[C@@H](O)[C@H](O)[C@H]2O[C@H]2C[C@](C)(NCc3ccc(-c4ccc(Cl)cc4)cc3)[C@H](O)[C@H](C)O2)Oc2ccc(cc2Cl)[C@H]1O  Cmax (mouse; intravenous, 10 mg/kg): 78900 ng/mL
